Results gathered from unrelated publications.
A part holds a random share of what one study measured. Positions count from the first letter of the parent shown.

Block 1
Target: Interferon regulatory factor 7, full length, phosphomimetic (IRF7, Homo sapiens, UniProt Q92985, residues 1-503, S101K/S471D/S472D/S475D/S476D/S477D/S483D/S484D/S487D)
Method: protein-binding microarray
Molecule type: double-stranded DNA, one strand shown
Sample: in vitro
Tested at: 250 nM
Notes: 60-bp whole probe
With: salmon DNA 0.4 mg/ml
Baseline: random background probes
Reading: higher = stronger binding
All sequences stand within: GCCTAGCAC … GTGCTAGGTCTTGATTCGCTTGACGCTGCTG
Construct (chain): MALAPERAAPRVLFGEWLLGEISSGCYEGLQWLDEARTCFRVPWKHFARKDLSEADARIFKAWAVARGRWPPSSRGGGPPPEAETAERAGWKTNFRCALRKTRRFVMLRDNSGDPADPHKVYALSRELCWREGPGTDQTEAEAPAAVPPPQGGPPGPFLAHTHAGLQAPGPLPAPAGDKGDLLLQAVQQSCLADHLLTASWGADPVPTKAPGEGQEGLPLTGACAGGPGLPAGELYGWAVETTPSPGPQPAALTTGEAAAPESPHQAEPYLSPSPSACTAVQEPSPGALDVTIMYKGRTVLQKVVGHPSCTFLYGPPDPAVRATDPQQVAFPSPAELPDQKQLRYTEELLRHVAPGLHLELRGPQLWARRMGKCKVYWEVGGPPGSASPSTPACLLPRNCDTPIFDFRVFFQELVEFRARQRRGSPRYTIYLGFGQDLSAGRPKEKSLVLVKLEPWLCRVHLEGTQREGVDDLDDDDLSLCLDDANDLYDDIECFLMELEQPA
Sequence | log fluorescence
GACGGTATCGGATTGGGGAC | 1.86 z-score
TTAGGACTGGGACTGGGTTA | 0.0408 z-score
GACGATTCCAGTGTCGAGAC | 0.0366 z-score
TGGAACTTAAAAGAAAGATA | 0.0677 z-score
TTAGGACTGGGAATCGGTTA | 0.48 z-score
GACGATCTCTGTTTCGAGAC | 1.54 z-score
GACGGACGGCTACTGCTGAC | -1.23 z-score
TTAGGTATCAGACTGGGTTA | -0.117 z-score
CTTTCTTTTTTTCTTTTATT | 3.25 z-score

Block 2
Target: Sal-like protein 4, full length isoform A (SALL4, Homo sapiens, UniProt Q9UJQ4, residues 1-1053)
Sequence of UniProt Q9UJQ4 (whole entry, looked up): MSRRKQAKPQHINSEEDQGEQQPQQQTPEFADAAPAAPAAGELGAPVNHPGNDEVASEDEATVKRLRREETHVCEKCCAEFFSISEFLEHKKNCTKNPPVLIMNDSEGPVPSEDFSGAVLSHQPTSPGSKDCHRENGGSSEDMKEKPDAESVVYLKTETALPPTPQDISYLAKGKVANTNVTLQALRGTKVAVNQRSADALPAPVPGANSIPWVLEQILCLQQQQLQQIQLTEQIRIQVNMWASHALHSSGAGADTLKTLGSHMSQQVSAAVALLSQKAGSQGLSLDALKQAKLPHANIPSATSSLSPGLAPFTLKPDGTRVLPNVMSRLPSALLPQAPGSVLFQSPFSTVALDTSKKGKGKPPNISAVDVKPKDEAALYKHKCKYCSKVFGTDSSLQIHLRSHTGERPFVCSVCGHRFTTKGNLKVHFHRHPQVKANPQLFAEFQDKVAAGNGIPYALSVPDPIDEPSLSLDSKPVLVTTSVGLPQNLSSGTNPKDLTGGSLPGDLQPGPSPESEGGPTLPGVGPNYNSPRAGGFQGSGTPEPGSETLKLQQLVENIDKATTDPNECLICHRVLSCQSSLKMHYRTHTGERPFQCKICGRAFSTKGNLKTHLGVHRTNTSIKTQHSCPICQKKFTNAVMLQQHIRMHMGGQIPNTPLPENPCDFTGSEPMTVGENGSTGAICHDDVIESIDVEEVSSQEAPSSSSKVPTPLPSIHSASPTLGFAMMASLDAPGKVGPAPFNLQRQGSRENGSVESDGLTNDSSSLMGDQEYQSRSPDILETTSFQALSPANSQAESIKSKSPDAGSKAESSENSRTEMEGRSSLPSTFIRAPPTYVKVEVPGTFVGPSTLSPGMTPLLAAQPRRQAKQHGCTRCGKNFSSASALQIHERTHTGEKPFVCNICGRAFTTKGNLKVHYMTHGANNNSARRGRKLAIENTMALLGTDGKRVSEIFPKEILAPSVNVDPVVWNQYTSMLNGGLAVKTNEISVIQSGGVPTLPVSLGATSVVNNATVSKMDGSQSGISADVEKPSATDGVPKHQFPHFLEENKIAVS
Method: universal PBM
Molecule type: double-stranded DNA, one strand shown
Sample: in vitro
Tested at: 600 nM
Notes: 8-mer, flanks averaged, mean of replicates
Reading: higher = stronger binding
Sequence | E-score
CCCCTCGG | -0.355
AAAAAGAT | 0.281
GCTGTTAC | -0.047
AATCTTGA | 0.188
ACAGGTTC | -0.102
ATGCTTGG | 0.0782
ATCTACAC | 0.0969
TCGTAAAA | 0.301
AAAGTCGC | 0.0946
CCTCAAGG | -0.262
GGACCCCC | -0.442
GTAGAGCA | -0.0628

Block 3
Target: CCNB3, cyclin fold, Cln2 fusion (human)
Method: yeast growth competition, sequencing
Sample: yeast
Notes: weak parent motif
Baseline: not given
Reading: higher = stronger binding
Starting sequence: MICAL3 docking peptide (human); LQLRRQLSFSEDS; partner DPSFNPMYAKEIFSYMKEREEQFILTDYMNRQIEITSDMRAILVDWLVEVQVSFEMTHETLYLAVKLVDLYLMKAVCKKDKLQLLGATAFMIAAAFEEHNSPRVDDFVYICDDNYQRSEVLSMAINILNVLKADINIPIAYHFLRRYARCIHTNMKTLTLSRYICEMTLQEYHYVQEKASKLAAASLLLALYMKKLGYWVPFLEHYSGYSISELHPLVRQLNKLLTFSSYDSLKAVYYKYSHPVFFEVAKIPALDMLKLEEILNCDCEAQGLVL
Change | normalised enrichment score
LQLRRFLSFSEDS [Q6F] | -0.137
LQLRRQQSFSEDS [L7Q] | -0.0588
LQLRRMLSFSEDS [Q6M] | 0.265
LQHRRQLSFSEDS [L3H] | -0.173
LQLRRQLSFSCDS [E11C] | 0.25
LQKRRQLSFSEDS [L3K] | -0.464
LQLRRQLSFSDDS [E11D] | -0.0341
LQLRRQLKFSEDS [S8K] | 0.485
LQLRVQLSFSEDS [R5V] | 0.145
LQLRRQLHFSEDS [S8H] | 0.554

Other studies, line by line
Molecule | target | test | test system | setting | how to read | endpoint | result
PhoQ, residues 284 288 289 292 302 303 TYGVAM | PhoP, residues 12 14 15 18 19 QYFSL (Escherichia coli, UniProt P23836) | Sort-seq, measured: YFP reporter | E. coli | PhoQ-PhoP variant library, with: 10 µM Mg2+ | baseline: high Mg2+ state, higher = stronger signaling | fold induction | 12.2

For quick reference, copied from above (block 1):
Sequence | log fluorescence
GACGGACGGCTACTGCTGAC | -1.23 z-score
TGGAACTTAAAAGAAAGATA | 0.0677 z-score
GACGATCTCTGTTTCGAGAC | 1.54 z-score
TTAGGACTGGGACTGGGTTA | 0.0408 z-score
TTAGGTATCAGACTGGGTTA | -0.117 z-score
